# Published values of several laboratories.
# Each line is one published result; not all experiments were run side by side. ± marks the error that the study gave.
Structure (SMILES),target or system,test,system,setting,how to read,measurement,result
CC/C=C\C/C=C\C/C=C\C/C=C\C/C=C\C/C=C\CCC(=O)Nc1ccn(C2OC(CO)C(O)C2(F)F)c(=O)n1 (stereo not drawn),NCI-H23,NCI60 screen,,,,CC50,56.6 µM
CCCc1cc2c(c(OC)c1OC)OCO2,DU-145,"cell growth or viability, MTT",,72 h,,GI50,> 250 µM
CC[C@@H](C(=O)[C@@H](C)[C@@H](O)[C@H](C)[C@@H]1O[C@@H]([C@@H](CC)C(=O)O)CC[C@@H]1C)[C@H]1O[C@]2(C=C[C@H](NCc3ccc(F)cc3)[C@]3(CC[C@@](C)([C@H]4CC[C@](O)(CC)[C@H](C)O4)O3)O2)[C@H](C)C[C@@H]1C,HMLER CD24low/CD44high,"cell viability, CellTiter-Blue",,72 h,reference: IC50 HMLER CD24high/CD44low over CD24low/CD44high,selectivity ratio,10.2
N=C(N)Nc1ccc(-c2nc3ccc(-c4ccc5nc(-c6ccc(NC(=N)N)cc6)[nH]c5c4)cc3[nH]2)cc1,sample A patient fibroblasts,,,concentration not given,,NOVA-regulated splicing,no effect
CC(C)CC(O)(CC(C)C)c1cn(C(=O)N2CCCC2)nn1,mouse T-cells,"N-terminal labeled proteins, N-terminal enrichment proteomics, item: S100A4",,"1 nM, 6 h",reference: DMSO,SILAC ratio,4.07 ± 0.3
CNC(=O)c1cc(Oc2ccc(NC(=O)c3ccc(-c4cccc(COC(=O)CCC(=O)OC5OC6OC7(C)CCC8C(C)CCC(C5C)C68OO7)c4)cn3)cc2)ccn1 (stereo not drawn),Huh-7,"PI staining, flow cytometry",,"concentration not given, 24 h",,G2/M phase cells,22%
CC(=O)N[C@@H](CCCNC(=N)N)C(=O)N[C@@H](CCCNC(=N)N)C(=O)N[C@@H](CCCNC(=N)N)C(=O)N[C@@H](CCCNC(=N)N)C(=O)N[C@@H](CCCNC(=N)N)C(=O)N[C@@H](CCCNC(=N)N)C(=O)N[C@@H](CCCNC(=N)N)C(=O)N[C@@H](CCCNC(=N)N)C(=O)N[C@@H](CCCNC(=N)N)C(=O)N[C@@H](CCCNC(=N)N)C(=O)NCC(=O)N[C@@H](COP(=O)(O)O)C(=O)N1CCC[C@H]1C(=O)N[C@H](C(=O)N[C@@H](Cc1ccccc1)C(=O)O)[C@@H](C)O,U2OS-DR,"homologous recombination, GFP reporter",,"100 µM, 2 h, then 48 h recovery",,reduction of HR activity,~40%
COc1ccc2c(c1)C1CC(C)(N2)c2c(C)nc3ccc(OC)cc3c21 (stereo not drawn),Huh-7,,,,reference: Huh-7 CC50 over INDO IC50,selectivity index,> 165
C=C1C(=O)O[C@H]2[C@H]1CCC(C)=C1[C@H](OC(=O)c3ccc(F)cc3)C[C@@](C)(O)[C@@H]12,M9-ENL1 leukaemia cells,annexin V/7-AAD flow cytometry,,"24 h, 5% human plasma",,CC50,14.7 µM
Cc1cc(C)c(N2CCN(c3c(C)cc(C)cc3C)C2=[Se])c(C)c1.[Cl][Ag],A-375,"cell growth or viability, MTT",,72 h,,IC50,0.6 µM
CC(C)C[C@H](NC(=O)[C@H](C)N)C(=O)N[C@@H](CC(C)C)C(=O)N[C@@H](C)C(=O)N[C@@H](CC(N)=O)C(=O)N[C@@H](Cc1c[nH]cn1)C(=O)N[C@@H](CCC(=O)O)C(=O)N[C@@H](CCC(=O)O)C(=O)N[C@@H](CC(C)C)C(=O)N[C@@H](Cc1ccccc1)C(=O)N[C@@H](CCC(N)=O)C(=O)N[C@H](C(=O)NCC(=O)NCC(=O)NCC(=O)N[C@@H](CO)C(=O)N[C@@H](CSC1CC(=O)N(CCNC(=O)CCCCCN2C(=CC=C3CCCC(C=CC4=[N+](CCCCS(=O)(=O)[O-])c5ccc(S(=O)(=O)O)cc5C4(C)C)=C3Oc3ccc(S(=O)(=O)O)cc3)C(C)(C)c3cc(S(=O)(=O)O)ccc32)C1=O)C(=O)O)[C@@H](C)O (stereo partly drawn),Hep3B,"co-localization with anti-GPC3 antibody, confocal microscopy",,,,Pearson correlation coefficient,0.71
COc1cc(C)cc2c1OCO2,T47D,cell growth or viability,,72 h,,GI50,> 250 µM
COC[C@@H](NC(C)=O)C(=O)NCc1ccc(-c2cccc(C(F)(F)F)c2)cc1,CAD,inhibitor,,concentration not given,,use-dependent Na+ current,decreased
CCN(CC)CCOc1ccc(-c2nnn(Cc3ccc(OC)cc3)c2N)cc1,primary Nf2-deficient mouse tumour cells 184,"western blot, item: GFAP",,"concentration not given, 3 days",,protein level,increased
CCOP(=O)(OCC)OCCCCOC(=O)CC1=C(C)C(=Cc2ccc([S+](C)[O-])cc2)c2ccc(F)cc21 (stereo not drawn),"NSCLC lines A549, H23, H358",modified MTT,,24 h,reference: IC50 sulindac over IC50 compound,potency enhancement,> 12 fold
Cc1nc(C)c(C=[N+]([O-])C(C)(C)C)nc1C,primary rat midbrain neurons,MTT,,"300 µM, with: MPP+","reference: MPP+ alone, increase",cell viability,24.1%
CCCCCCCCCCCCCCCC[P+](c1ccccc1)(c1ccccc1)c1ccccc1,T47D,"cell growth or viability, MTT",,72 h,,GI50,0.268 µM
CC[C@@]1(O)C(=O)OCc2c1cc1n(c2=O)Cc2cc3cc(OC(=O)CCCC(=O)NCC(=O)N[C@@H](Cc4ccccc4)C(=O)N[C@@H](Cc4ccccc4)C(=O)N[C@@H](Cc4ccc(OP(=O)(O)O)cc4)C(=O)NCC(=O)N[C@@H](CCC(=O)O)C(=O)N[C@@H](CCCNC(=N)N)C(=O)NCC(=O)N[C@@H](CC(=O)O)C(=O)O)ccc3nc2-1,HepG2 spheroids,confocal microscopy,,"100 µM, 6 h",,penetration depth,100 µm
O=C(O)CCC(NP(=O)(O)OCCC[C@@H](NC(=O)CCC(NC(=O)CCCCCNC(=O)CCCCCNC(=O)c1ccc([18F])cc1)C(=O)O)C(=O)O)C(=O)O (stereo partly drawn),CWR22Rv1,,,1 h,,cell uptake,2.28 ± 0.14%
CN[C@](C)(C[18F])C(=O)O,A549 tumour model,,"host not given, tumour","2 h, tumour-bearing",,tracer uptake,3.6 %ID/g
[Cl][Ag].[Se]=c1n(C2CCCCC2)ccn1C1CCCCC1,H157 spheroids,acid phosphatase,,"72 h, 3D spheroid",,IC50,15.6 ± 2 µM
CCCN[C@H]1C=C[C@]2(O[C@H]([C@@H](CC)C(=O)[C@@H](C)[C@@H](O)[C@H](C)[C@@H]3O[C@@H]([C@@H](CC)C(=O)O)CC[C@@H]3C)[C@@H](C)C[C@H]2C)O[C@@]12CC[C@@](C)([C@H]1CC[C@](O)(CC)[C@H](C)O1)O2,HMLER CD24low/CD44high,"cell viability, CellTiter-Blue",,72 h,reference: IC50 HMLER CD24high/CD44low over CD24low/CD44high,selectivity ratio,10.1
CN1C(=O)C2(Cc3ccc(CC45SSC(CO)(C(=O)N4C)N(C)C5=O)cc3)SSC1(CO)C(=O)N2C (racemic),MCF7,microarray,,"600 nM, fold-change cutoff 2.0, with: deferoxamine",,number of inhibited transcripts,113
Cc1cc(C)c(-n2ccn(-c3c(C)cc(C)cc3C)c2=[Se])c(C)c1.[Cl][Ag],PSN1,"cell growth or viability, MTT",,72 h,,IC50,0.3 µM
COc1c(C)cc2c(c1OC)OCO2,T47D,"cell growth or viability, MTT",,72 h,,GI50,> 250 µM
CC[C@H](C)[C@H](NC(=O)[C@H](Cc1ccccc1)NC(=O)[C@H](CC(=O)O)NC(=O)[C@H](CCCCN)NC(=O)[C@H](C)NC(=O)[C@H](CCCCN)NC(=O)[C@H](CC(N)=O)NC(=O)[C@H](CC(C)C)NC(=O)[C@H](Cc1c[nH]c2ccccc12)NC(=O)[C@H](CCC(=O)O)NC(=O)[C@H](CCCCN)NC(=O)[C@@H](NC(=O)CNC(=O)[C@H](C)N)[C@@H](C)O)C(=O)N[C@@H](CCCCN)C(=O)N[C@@H](CCC(=O)O)C(=O)N[C@@H](CCCCN)C(=O)NCC(=O)N[C@@H](CC(C)C)C(=O)NCC(=O)N[C@@H](CCSC)C(=O)N[C@@H](CC(C)C)C(=O)N[C@@H](CCCNC(=N)N)C(=O)N[C@@H](C)C(=O)N[C@@H](C)C(=O)N[C@@H](C)C(=O)N[C@@H](CC(N)=O)C(=O)N[C@@H](C)C(=O)N[C@@H](C)C(=O)N[C@@H](CC(C)C)C(=O)N[C@@H](CC(N)=O)C(=O)O,HEK293 cells,"intracellular calcium, FLIPR",,0.1% BSA,,EC50,> 100 µM
C[C@@H](OC(C)(C)C)[C@H](NC(=O)OCc1ccccc1)C(=O)N[C@@H](CC1CCCCC1)C(=O)N[C@H](C=O)C[C@@H]1CCNC1=O,293T,,,"1 µM, with: antimycin A",reference: without compound,apoptosis,no effect
CCOC(=O)CCCCC[C@@H]1NC(=O)[C@H]2CCCCN2C(=O)[C@H]([C@@H](C)CC)NC(=O)[C@H](Cc2c[nH]c3ccccc23)NC1=O,iPSC-derived neural progenitor cells,western blot,,"1 µM, 18 h",reference: vehicle,H3K9 acetylation,~2.1 fold increase
CCCCCCCCC[P+](c1ccccc1)(c1ccccc1)c1ccccc1,T47D,"cell growth or viability, MTT",,72 h,,GI50,0.023 µM
N=C(N)NCCC[C@H](N)C(=O)NCC(=O)N[C@@H](CCC(=O)O)C(=O)O,NIH 3T3 fibroblasts,,peptide-functionalised PEG-glass,"concentration not given, 4 h",,cell perimeter,96 ± 17 µm
CCCc1cc(OC)c(OC)c(OC)c1OC,T47D,"cell growth or viability, MTT",,72 h,,GI50,13.3 µM
CCNc1cc2[o+]c3cc(NCC)c(C)cc3c(-c3ccccc3C(=O)OCCOCC[18F])c2cc1C,rat cardiomyocytes,,,60 min,reference: activity,uptake,55 ± 6.8%
CC(C)=CCC/C(C)=C/C[P+](c1ccccc1)(c1ccccc1)c1ccccc1,DU-145,"cell growth or viability, MTT",,72 h,,GI50,0.932 µM
CCOC(=O)c1ccc(NC(=S)Nc2ccc3c(c2)C(C)(C)CC(C)(C)S3)cc1,CAKI-1,MTS,,"range over 1 to 12.5 µM, 48 h",,maximum growth inhibition,56.5 ± 14.6%
C=CCc1cc(OC)c(OC)c(OC)c1OC,A549,"cell growth or viability, MTT",,72 h,,GI50,> 250 µM
CC1(C)CC([n+]2cc([NH-])on2)CC(C)(C)N1O,primary human trabecular meshwork cells,enzyme immunoassay,,,,cGMP increase plateau concentration,1 mM
